Published values of several laboratories.
Protocols differ between the studies behind these lines. Several values in a cell are separate wells, animals, samples, runs or records. ± gives the spread as reported. In brackets after ≈: the same amount, converted by molar mass.

Compound | target or system | assay | test system | setting | how to read | measurement | value
CN[C@H](CC(C)C)C(=O)N[C@H]1C(=O)N[C@@H](CC(N)=O)C(=O)N[C@H]2C(=O)N[C@H]3C(=O)N[C@H](C(=O)N[C@H](C(=O)O)c4cc(O)cc(O)c4-c4cc3ccc4O)[C@H](O)c3ccc(c(Cl)c3)Oc3cc2cc(c3O[C@@H]2O[C@H](CO)[C@@H](O)[C@H](O)[C@H]2O[C@H]2C[C@](C)(N)[C@H](O)[C@H](C)O2)Oc2ccc(cc2Cl)[C@H]1O | Streptococcus pneumoniae | – | – | – | – | MIC50 | 0.5 µg/mL (≈ 0.345 µM)
CC(C)C(=O)OC[C@@]1(F)O[C@@H](n2cnc(-c3c[nH]c(=O)[nH]c3=O)c2)[C@H](OC(=O)C(C)C)[C@@H]1OC(=O)C(C)C | Dengue virus | viral replication | Huh-7, DENV-4 | 48 h | – | EC50 | > 100 µM
Cc1c(CN(C)C(=O)/C=C/c2cnc3c(c2)CC(NC(=O)OC(C)(C)C)C(=O)N3)oc2ccccc12 (stereo not drawn) | Klebsiella pneumoniae | broth microdilution | AR-0141 | – | – | MIC | > 32 µg/mL
Cc1ccc(CCC(=O)Nc2nnc(S(N)(=O)=O)s2)cc1 | Enterococcus gallinarum | – | ATCC 49573 | – | – | MIC | 12.3 µM
N=C(N)c1ccc(OCCC(CCOc2ccc(C(=N)N)cc2)c2ccccc2)cc1 (stereo not drawn) | Klebsiella pneumoniae | – | ATCC 13883 | concentration not given, added: rifampicin | – | MIC in combination | 12.5 µg/mL
CCNC(=O)c1cnn(-c2ccc(-n3ccc(Cl)c(Cl)c3=O)cc2)c1C(F)(F)F | amyloid beta oligomers | dendritic length, MAP2 staining | primary rat hippocampal neurons | added: 7PA2 conditioned medium | – | effective concentration | ≥ 250 nM
COC(=O)[C@H](Cc1c[nH]c2ccccc12)NCc1cc2ccccc2nc1SC | Pseudomonas aeruginosa | – | – | 2 µg/mL, added: pentamidine 50 µM | baseline: control | growth | 98.5%
CC(C)C(=O)Nc1ncncc1-c1cn([C@@H]2O[C@](F)(COC(=O)C(C)C)[C@@H](OC(=O)C(C)C)[C@H]2OC(=O)C(C)C)cn1 | Dengue virus | viral replication | Huh-7, DENV-4 | 48 h | – | EC50 | 49 µM
C[C@H](CCCC(C)(C)O)[C@H]1CC[C@H]2[C@@H]3CC=C4C[C@@H](O)CC[C@]4(C)[C@H]3CC[C@]12C | human rotavirus | viral replication | Caco-2, DS-1 | – | – | EC90 | 2.42 µM
O=C1/C(=C/c2ccc([N+](=O)[O-])cc2[N+](=O)[O-])NC(=S)N1c1ccccc1 | Fusarium solani | – | – | concentration not given | – | inhibition zone diameter | 20 ± 0.91 mm
C[C@@H](O)[C@H]1C(=O)N2C(C(=O)O)=C(SCCN=CN)C[C@H]12 | Escherichia coli | – | ATCC 25922, female ICR mice, wound infection, full-thickness wound | dose not given | – | bacterial load | 6.88 log CFU/g and 6.96 log CFU/g and 6.67 log CFU/g and 6.63 log CFU/g and 6.72 log CFU/g
CC1(C)S[C@@H]2[C@H](NC(=O)[C@H](N)c3ccccc3)C(=O)N2[C@H]1C(=O)O | Pseudomonas aeruginosa | – | clinical isolate RKI-No_84/15 | – | – | MIC | > 16 µg/mL
CC(C)n1ncc2c(C(=O)NCC3(C)CNC3)cc(C3CC3)nc21 | Enterovirus D68 | viral replication | RD, US/MO/14-18947 | 30 nM | – | plaque reduction | 0%
CC(C)(C)CC(C)(C)c1ccc(OCCO)cc1 | Phelipanche ramosa | seed germination, antagonist | – | added: 2-PEITC 100 nM | – | IC50 | 15 µM
C#CCCCC(=O)NCC | Escherichia coli | LuxR reporter, antagonist | DH5α sensor strain | 1 µM, added: OHHL 200 nM | – | inhibition | 14 ± 1%
COc1ncc(-c2cn([C@@H]3O[C@](F)(CO)[C@@H](O)[C@H]3O)cn2)c(OC)n1 | Dengue virus | viral replication | Huh-7, DENV-2 | 48 h | – | EC50 | > 100 µM
Nc1nc(-c2ccccc2)nc2[nH]nc(Nc3ccc(C(F)(F)F)cc3)c12 | coxsackievirus B3 | – | 31-1-93, NMRI mice, CVB3 chronic myocarditis | oral, 100 mg/kg twice daily, day 26, dosed days 3 to 10, score scale 0 to 7 | direction not given | clinical score | 0.3

Compound | target or system | assay | test system | setting | how to read | measurement | value
COCC(=O)N1CCCC(C(=O)NCc2nc(-c3ccccc3)cs2)C1 (racemic) | Plasmodium falciparum | SYBR Green | 3D7 | 72 h | – | EC50 | 0.19 ± 0.041 µM
CCOc1nc(N)ncc1-c1cn([C@@H]2O[C@](F)(CO)[C@@H](O)[C@H]2O)cn1 | Dengue virus | viral replication | Huh-7, DENV-4 | 48 h | – | EC50 | > 100 µM
CC(C)C[C@H](NC(=O)[C@H](Cc1cccc2ccccc12)NC(=O)OCc1ccccc1)C(=O)NC(/C=C/C=O)C[C@@H]1CCNC1=O (stereo partly drawn) | Norwalk virus | RT-qPCR, item: replicon RNA | HG23, GI-1 replicon | 96 h | – | EC90 | > 10 µM
Nc1ncc(-c2cn([C@@H]3O[C@](F)(CO)[C@@H](O)[C@H]3O)cn2)cn1 | Dengue virus | viral replication | Huh-7, DENV-2 | 48 h | – | EC50 | > 100 µM
CCCCCCCCCC(=O)N[C@@H](Cc1c[nH]c2ccccc12)C(=O)N[C@H](CC(N)=O)C(=O)N[C@@H](CC(=O)O)C(=O)N[C@@H]1C(=O)NCC(=O)N[C@@H](CCCN)C(=O)N[C@@H](CC(=O)O)C(=O)N[C@H](C)C(=O)N[C@@H](CC(=O)O)C(=O)NCC(=O)N[C@H](CO)C(=O)N[C@@H]([C@H](C)CC(=O)O)C(=O)N[C@@H](CC(=O)c2ccccc2N)C(=O)O[C@@H]1C | Staphylococcus aureus | broth microdilution | MRSA USA300, Mueller-Hinton broth, Mg2+ 10 mg/L | 16 h, 37 °C, added: Ca2+ 10 mM | – | MIC | 0.125 µg/mL
C[C@@H](CO)CCC[C@@H](C)[C@H]1CC[C@H]2[C@@H]3CC=C4C[C@@H](O)CC[C@]4(C)[C@H]3CC[C@]12C | human rotavirus | viral replication | Caco-2, DS-1 | – | – | EC90 | 2.62 µM
CC(C)C(=O)OC[C@@]1(F)O[C@@H](n2cnc(-c3cnc(N)nc3)c2)[C@H](OC(=O)C(C)C)[C@@H]1OC(=O)C(C)C | Dengue virus | viral replication | Huh-7, DENV-2 | 48 h | – | EC50 | 18 µM
Cc1cc(Nc2ccc(S(F)(F)(F)(F)F)cc2)n2nc(C(C)(F)F)nc2n1 | Plasmodium falciparum | microscopy | P. falciparum malaria patients | oral, 250 mg | – | PC50 parasite clearance time median | 24 h
CC(C)C(=O)OC[C@@]1(F)O[C@@H](n2cnc(-c3c[nH]c(=O)nc3N)c2)[C@H](OC(=O)C(C)C)[C@@H]1OC(=O)C(C)C | Dengue virus | viral replication | Huh-7, DENV-2 | 48 h | – | EC50 | > 100 µM
CC(C)c1ccc(/C=C2\N/C(=N/c3ccccc3)N(N)C2=O)cc1 | Fusarium solani | – | – | concentration not given | – | inhibition zone diameter | 14 ± 0.61 mm
Cn1cc(-c2ccc(-c3cncc(Cl)c3N3CCC4(CCNC4=O)CC3)cc2)cn1 | COLO 205 | gene expression, microarray, item: S100A10 mRNA | – | concentration not given, 2 h | baseline: untreated cells | log2 fold change | 3.88
COC(=O)[C@H](Cc1c[nH]c2ccccc12)NCc1cc2ccccc2nc1OC | Pseudomonas aeruginosa | – | – | 64 µg/mL, added: pentamidine 50 µM | baseline: control | growth | 75.5%
CC(C)C(=O)OC[C@@]1(F)O[C@@H](n2cnc(-c3cnc(=O)[nH]c3)c2)[C@H](OC(=O)C(C)C)[C@@H]1OC(=O)C(C)C | Dengue virus | viral replication | Huh-7, DENV-2 | 48 h | – | EC50 | > 100 µM
CC[C@H]1OC(=O)[C@H](C)[C@@H](O[C@H]2C[C@@](C)(OC)[C@@H](O)[C@H](C)O2)[C@H](C)[C@@H](O[C@@H]2O[C@H](C)C[C@H](N(C)C)[C@H]2O)[C@](C)(O)C[C@@H](C)C(=O)[C@H](C)[C@@H](O)[C@]1(C)O | Vibrio natriegens | – | ATCC 14048 SbmA deletion, BHI medium | 25 µM, 6 h, 37 °C | – | growth inhibition | inhibited
COC(=O)[C@@H](NCc1cc2ccccc2nc1OCc1ccccc1)C(C)C | Pseudomonas aeruginosa | – | – | 64 µg/mL, added: pentamidine 100 µM | baseline: control | growth | 94.5%
CC(C)[C@@H]1NC(=O)[C@@H](CCCNC(=N)N)NC(=O)[C@H]([C@@H](C)O)NC(=O)[C@@H](CCCN)NC(=O)[C@H](Cc2ccccc2)NC(=O)[C@@H](Cc2ccc(O)cc2)NC1=O | Balamuthia mandrillaris | CellTiter-Glo | trophozoites | concentration not given | – | growth inhibition | inactive
